# Results gathered from unrelated publications.
# Every numbered part comes from another study and shows a few of its results, in no order. “And” joins repeats or separate records; there may be more than shown.
# Sequence of UniProt Q6ZWH5 (whole entry, looked up): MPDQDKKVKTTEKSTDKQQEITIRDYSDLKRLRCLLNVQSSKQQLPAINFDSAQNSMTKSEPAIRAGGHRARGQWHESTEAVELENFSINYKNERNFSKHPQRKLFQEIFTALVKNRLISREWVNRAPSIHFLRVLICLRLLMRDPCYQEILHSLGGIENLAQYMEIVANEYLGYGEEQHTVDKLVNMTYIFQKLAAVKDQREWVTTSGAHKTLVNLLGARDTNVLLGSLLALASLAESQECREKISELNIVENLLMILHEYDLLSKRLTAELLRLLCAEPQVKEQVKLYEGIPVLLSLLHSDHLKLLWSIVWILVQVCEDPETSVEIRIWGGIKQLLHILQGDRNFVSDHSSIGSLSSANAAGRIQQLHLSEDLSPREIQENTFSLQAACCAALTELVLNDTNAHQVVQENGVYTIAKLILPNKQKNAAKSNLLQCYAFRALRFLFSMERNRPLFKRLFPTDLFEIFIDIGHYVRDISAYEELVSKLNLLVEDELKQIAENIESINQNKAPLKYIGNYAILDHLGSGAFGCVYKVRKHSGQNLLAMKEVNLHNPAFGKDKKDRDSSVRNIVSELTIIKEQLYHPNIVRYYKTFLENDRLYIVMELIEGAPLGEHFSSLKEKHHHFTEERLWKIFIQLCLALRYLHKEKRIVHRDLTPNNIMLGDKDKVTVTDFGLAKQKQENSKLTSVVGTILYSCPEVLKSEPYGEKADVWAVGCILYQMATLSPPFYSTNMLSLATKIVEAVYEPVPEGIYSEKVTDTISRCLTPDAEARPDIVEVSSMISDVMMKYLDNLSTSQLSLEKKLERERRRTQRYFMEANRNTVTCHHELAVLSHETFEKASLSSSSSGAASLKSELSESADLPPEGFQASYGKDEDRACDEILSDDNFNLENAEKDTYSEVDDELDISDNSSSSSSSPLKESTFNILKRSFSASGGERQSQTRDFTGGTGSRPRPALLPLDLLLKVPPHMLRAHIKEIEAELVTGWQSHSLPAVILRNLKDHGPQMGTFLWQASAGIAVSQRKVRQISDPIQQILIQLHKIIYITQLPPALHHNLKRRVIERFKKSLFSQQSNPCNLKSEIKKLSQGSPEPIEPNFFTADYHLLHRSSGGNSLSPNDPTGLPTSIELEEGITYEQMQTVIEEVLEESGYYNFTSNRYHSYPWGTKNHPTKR
# Sequence of UniProt O76039 (whole entry, looked up): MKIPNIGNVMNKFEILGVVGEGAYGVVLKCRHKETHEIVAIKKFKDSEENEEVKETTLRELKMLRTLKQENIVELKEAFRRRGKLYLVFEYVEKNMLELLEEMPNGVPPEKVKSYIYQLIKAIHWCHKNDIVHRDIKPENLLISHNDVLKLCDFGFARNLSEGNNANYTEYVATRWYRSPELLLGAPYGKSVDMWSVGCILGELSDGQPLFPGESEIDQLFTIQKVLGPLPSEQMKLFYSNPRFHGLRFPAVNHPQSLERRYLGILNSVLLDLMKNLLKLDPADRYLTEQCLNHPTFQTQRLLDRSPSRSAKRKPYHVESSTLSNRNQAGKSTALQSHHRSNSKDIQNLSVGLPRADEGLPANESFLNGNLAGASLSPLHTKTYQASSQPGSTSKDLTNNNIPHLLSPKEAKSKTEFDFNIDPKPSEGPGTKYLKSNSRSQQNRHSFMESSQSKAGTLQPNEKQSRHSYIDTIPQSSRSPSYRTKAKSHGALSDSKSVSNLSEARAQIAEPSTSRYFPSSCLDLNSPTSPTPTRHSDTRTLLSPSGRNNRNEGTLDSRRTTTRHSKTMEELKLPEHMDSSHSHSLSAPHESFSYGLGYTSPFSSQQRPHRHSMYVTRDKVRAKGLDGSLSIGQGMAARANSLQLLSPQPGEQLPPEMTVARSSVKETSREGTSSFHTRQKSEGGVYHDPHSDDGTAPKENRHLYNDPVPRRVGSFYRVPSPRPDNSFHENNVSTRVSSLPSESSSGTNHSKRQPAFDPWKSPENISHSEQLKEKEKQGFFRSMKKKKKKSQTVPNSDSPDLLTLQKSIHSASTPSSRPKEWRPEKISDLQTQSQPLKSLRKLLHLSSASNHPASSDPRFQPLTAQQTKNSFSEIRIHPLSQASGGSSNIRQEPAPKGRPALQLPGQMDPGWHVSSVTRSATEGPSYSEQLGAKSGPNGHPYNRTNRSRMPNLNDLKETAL
# Sequence of UniProt P42336 (whole entry, unmodified, looked up): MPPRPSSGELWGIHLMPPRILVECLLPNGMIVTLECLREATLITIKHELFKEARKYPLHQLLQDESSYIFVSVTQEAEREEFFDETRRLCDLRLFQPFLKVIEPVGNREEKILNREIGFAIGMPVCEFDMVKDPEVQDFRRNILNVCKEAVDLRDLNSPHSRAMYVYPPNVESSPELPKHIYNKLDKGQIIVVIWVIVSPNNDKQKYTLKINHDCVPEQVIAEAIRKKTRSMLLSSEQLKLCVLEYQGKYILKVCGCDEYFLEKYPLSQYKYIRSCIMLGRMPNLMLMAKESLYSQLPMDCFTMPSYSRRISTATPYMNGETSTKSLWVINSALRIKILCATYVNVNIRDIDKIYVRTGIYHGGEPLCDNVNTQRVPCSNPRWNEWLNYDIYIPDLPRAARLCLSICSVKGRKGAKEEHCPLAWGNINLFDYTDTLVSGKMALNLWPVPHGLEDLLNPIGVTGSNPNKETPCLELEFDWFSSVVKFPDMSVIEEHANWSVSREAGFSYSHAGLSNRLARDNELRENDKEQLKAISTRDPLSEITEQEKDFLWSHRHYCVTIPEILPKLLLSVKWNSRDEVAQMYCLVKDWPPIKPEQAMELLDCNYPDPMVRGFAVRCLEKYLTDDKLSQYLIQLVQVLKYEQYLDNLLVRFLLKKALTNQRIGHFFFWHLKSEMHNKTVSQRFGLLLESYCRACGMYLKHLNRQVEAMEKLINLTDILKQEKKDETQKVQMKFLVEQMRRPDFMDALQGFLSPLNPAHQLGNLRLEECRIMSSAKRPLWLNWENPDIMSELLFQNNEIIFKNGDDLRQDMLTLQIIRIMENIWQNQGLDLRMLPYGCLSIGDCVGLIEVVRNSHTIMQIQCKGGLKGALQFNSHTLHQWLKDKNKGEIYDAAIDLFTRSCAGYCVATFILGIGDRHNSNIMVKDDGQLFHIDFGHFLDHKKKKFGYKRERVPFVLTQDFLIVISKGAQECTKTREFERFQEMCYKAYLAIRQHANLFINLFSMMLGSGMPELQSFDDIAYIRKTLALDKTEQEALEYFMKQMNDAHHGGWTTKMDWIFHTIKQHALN
# Sequence of UniProt P78362 (whole entry, looked up): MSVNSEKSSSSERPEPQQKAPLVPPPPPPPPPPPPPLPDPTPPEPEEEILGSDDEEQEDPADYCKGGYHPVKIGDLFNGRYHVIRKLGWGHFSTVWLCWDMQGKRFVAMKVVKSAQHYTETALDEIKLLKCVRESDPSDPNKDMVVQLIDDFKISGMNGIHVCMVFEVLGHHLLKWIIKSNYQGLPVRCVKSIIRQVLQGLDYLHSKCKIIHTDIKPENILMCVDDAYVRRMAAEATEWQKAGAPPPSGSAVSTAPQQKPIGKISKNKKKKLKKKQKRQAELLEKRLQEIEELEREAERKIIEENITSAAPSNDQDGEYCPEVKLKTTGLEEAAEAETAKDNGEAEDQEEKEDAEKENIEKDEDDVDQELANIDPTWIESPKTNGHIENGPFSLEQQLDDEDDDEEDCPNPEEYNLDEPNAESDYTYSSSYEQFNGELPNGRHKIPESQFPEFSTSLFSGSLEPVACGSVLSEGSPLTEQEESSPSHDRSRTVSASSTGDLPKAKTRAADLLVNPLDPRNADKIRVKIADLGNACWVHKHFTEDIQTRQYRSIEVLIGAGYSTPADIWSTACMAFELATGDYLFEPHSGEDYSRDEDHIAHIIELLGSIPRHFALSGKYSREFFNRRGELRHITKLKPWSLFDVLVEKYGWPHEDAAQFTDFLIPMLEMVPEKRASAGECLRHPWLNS
# Sequence of UniProt Q9UQM7 (whole entry, looked up): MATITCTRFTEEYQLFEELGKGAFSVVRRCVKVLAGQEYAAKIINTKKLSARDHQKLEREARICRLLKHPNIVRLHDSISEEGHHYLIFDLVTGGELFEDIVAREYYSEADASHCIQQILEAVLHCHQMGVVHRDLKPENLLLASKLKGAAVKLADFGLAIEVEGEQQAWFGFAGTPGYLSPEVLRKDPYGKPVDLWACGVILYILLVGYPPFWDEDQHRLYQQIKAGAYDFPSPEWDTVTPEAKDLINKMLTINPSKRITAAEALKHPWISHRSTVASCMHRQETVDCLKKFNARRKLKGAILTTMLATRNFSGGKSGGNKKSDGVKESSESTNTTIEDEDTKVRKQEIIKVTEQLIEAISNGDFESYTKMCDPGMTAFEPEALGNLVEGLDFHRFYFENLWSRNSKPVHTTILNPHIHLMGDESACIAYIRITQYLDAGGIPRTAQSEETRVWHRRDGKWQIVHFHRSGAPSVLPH

# Sample 1
# Target: Beta-1 adrenergic receptor (ADRB1, Homo sapiens, UniProt P08588)
# Sequence of UniProt P08588 (whole entry, looked up): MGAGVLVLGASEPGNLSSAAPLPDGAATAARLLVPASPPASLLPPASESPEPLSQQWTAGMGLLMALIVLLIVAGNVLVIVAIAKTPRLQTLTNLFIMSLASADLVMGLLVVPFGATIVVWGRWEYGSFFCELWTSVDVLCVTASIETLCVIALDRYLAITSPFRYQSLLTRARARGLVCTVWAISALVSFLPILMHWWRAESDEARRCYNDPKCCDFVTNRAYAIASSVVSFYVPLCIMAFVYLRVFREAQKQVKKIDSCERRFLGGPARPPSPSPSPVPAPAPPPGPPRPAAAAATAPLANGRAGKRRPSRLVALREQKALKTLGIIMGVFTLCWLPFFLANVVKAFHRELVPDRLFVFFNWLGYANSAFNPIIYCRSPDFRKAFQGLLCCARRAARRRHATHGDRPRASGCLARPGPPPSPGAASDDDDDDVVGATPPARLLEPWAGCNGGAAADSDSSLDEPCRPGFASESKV
# Mode: agonist
Structure (SMILES),EC50
CCn1ncc(NC(=O)Cn2ncc3cc(-c4ccc(N(C)C)cc4)ccc32)n1,≥ 100 µM
O=C1c2ccc3ccccc3c2C(=O)C1c1cc(O)c2ccccc2n1 (stereo not shown),≥ 100 µM
Cc1cc(C)n(-c2ccc(=O)n(CC3CN(c4nc5c(cc4C#N)CCC5)C3)n2)n1,≥ 100 µM
Cc1noc2c(-c3cccnc3Nc3ccncc3)cc(-c3ccccc3)nc12,≥ 100 µM
O=c1oc(Cl)c(Cl)c2ccccc12,≥ 100 µM
c1ccc2nc(N3CCCC(COc4ccncc4)C3)ccc2c1 (stereo not shown),≥ 100 µM
COC(=O)[C@H](Cc1cccc(C(=N)N)c1)[C@@H](C)NC(=O)c1ccc(-c2cc[n+]([O-])cc2)cc1,≥ 100 µM
Cc1nc(C2CC(O)C2)cc(N2CC(N3CCOCC3)C2)n1 (stereo not shown),≥ 100 µM
O=C(Nc1ccccc1)Nc1ccc([C@@H](O)[C@H]2COCC(=O)N2CC2CC2)cc1,≥ 100 µM

# Sample 2
# SMILES: O=S(=O)(NC1CCC(c2cc(F)ccc2F)(S(=O)(=O)c2ccc(Cl)cc2)CC1)C(F)(F)F (stereo not shown)
# Observed: cell-free assay
# Technique: competition with immobilised ligand
# Concentration: 1 µM
target,remaining binding
"SGK3 (Homo sapiens, UniProt Q96BR1)",89%
"PKN1 (Homo sapiens, UniProt Q16512)",100%
"Ribosomal protein S6 kinase alpha-3, N-terminal kinase domain (RPS6KA3, Homo sapiens, UniProt P51812)",96%
"PRKCD (Homo sapiens, UniProt Q05655)",100%
"CAMK2A (Homo sapiens, UniProt Q9UQM7)",100%
"CDKL5 (Homo sapiens, UniProt O76039)",87%
"STK4 (Homo sapiens, UniProt Q13043)",100%
"KIT (Homo sapiens, UniProt P10721, T670I/V559D)",100%
"MAP3K14 (Homo sapiens, UniProt Q99558)",82%
"BRSK1 (Homo sapiens, UniProt Q8TDC3)",92%
"HIPK2 (Homo sapiens, UniProt Q9H2X6)",81%
"SRMS (Homo sapiens, UniProt Q9H3Y6)",100%
"SRPK2 (Homo sapiens, UniProt P78362)",65%
"NEK10 (Homo sapiens, UniProt Q6ZWH5)",100%
"TNK1 (Homo sapiens, UniProt Q13470)",98%
"Tyrosine-protein kinase ABL1, non-phosphorylated (ABL1, Homo sapiens, UniProt P00519)",88%
"EGFR (Homo sapiens, UniProt P00533, G719S)",100%
"PIK3CA (Homo sapiens, UniProt P42336, H1047Y)",100%
"Tyrosine-protein kinase ABL1, phosphorylated (ABL1, Homo sapiens, UniProt P00519, Q252H)",84%

# Sample 3
# Structure (SMILES): CO[C@@H]1[C@@H](OC(N)=O)[C@@H](O)[C@H](Oc2ccc3c(O)c(NC(=O)c4ccc(O)c(CC=C(C)C)c4)c(=O)oc3c2C)OC1(C)C
# Technique: CellTiter-Glo
cell line,conditions,viability
RPE-1 BRCA1-/- PARPi-resistant R3,"200 µM, 6 days",42.3% and 41.2%
RPE-1 BRCA1-/- PARPi-resistant R3,"50 µM, 6 days",73% and 76.7%
RPE-1 p53-/- BRCA1-/-,"100 µM, 6 d",45.7% and 53.1%
RPE-1 BRCA1-/- PARPi-resistant R3,"25 µM, 6 d",83.4%
RPE-1 BRCA1-/- PARPi-resistant R3,"150 µM, 6 days",58.9% and 57.2%
RPE-1 BRCA1-/- PARPi-resistant R4,"200 µM, 6 days",45.8% and 46.7%

# Sample 4
# Cell line: HaCaT
# Concentration: 100 µM
# Time: 60 h
Structure (SMILES),viability
O=S(=O)(O)CCSSCCS(=O)(=O)O,143%
CC(=O)Nc1ccc(OC(=O)c2ccccc2OC(C)=O)cc1,115%
C=CCN1CCCC1CNC(=O)c1cc2[nH]nnc2cc1OC (stereo not shown),121%
COC(=O)[C@@H]1[C@H]2C[C@H]3c4[nH]c5ccccc5c4CCN3C[C@@H]2CC[C@@H]1O,107%
C[C@H](CCC(=O)O)[C@H]1CC[C@H]2[C@@H]3[C@H](O)C[C@@H]4C[C@H](O)CC[C@]4(C)[C@H]3C[C@H](O)[C@]12C,127%
CC1(C)C[C@@H]1C(=O)N/C(=C\CCCCSC[C@H](N)C(=O)O)C(=O)O,150%

# Excerpt of the above (sample 1):
Structure (SMILES),EC50
CCn1ncc(NC(=O)Cn2ncc3cc(-c4ccc(N(C)C)cc4)ccc32)n1,≥ 100 µM
Cc1cc(C)n(-c2ccc(=O)n(CC3CN(c4nc5c(cc4C#N)CCC5)C3)n2)n1,≥ 100 µM
COC(=O)[C@H](Cc1cccc(C(=N)N)c1)[C@@H](C)NC(=O)c1ccc(-c2cc[n+]([O-])cc2)cc1,≥ 100 µM
Cc1noc2c(-c3cccnc3Nc3ccncc3)cc(-c3ccccc3)nc12,≥ 100 µM
